Experimental data from different studies.
Numbered parts are unrelated; each lists some results of a single study.

Set 1
Target: Centromere-binding protein 1, full length, His-tagged (CBF1, Saccharomyces cerevisiae, UniProt P17106, residues 1-351)
Sequence of UniProt P17106 (whole entry, looked up): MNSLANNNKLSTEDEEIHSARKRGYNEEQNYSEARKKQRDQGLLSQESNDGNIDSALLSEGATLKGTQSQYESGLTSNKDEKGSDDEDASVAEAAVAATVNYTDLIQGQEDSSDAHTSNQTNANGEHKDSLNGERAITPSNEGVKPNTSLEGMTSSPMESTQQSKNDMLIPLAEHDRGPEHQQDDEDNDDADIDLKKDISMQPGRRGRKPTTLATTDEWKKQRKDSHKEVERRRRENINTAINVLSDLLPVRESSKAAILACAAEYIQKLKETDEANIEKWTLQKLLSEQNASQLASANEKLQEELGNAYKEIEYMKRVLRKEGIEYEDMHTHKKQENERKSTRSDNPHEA
Method: competition protein-binding microarray
Form: double-stranded DNA, one strand shown
Sample: in vitro
Concentration: 2 µM
Setting: whole 60-bp probe, lowest competitor level
With: Pho4 competitor, 0.05 µM
Direction: higher = stronger binding
Strand | fluorescence intensity [a.u.]
CTTTCCCGATCTTGCCACGTGGGTGTAGCACATTTGGTCTTGATTCGCTTGACGCTGCTG | 876
ATATTAGCTGAAAACCACATGGACGCAGCATTCAGTGTCTTGATTCGCTTGACGCTGCTG | 80.6
AAAGTACACAGGGTCCATGTGCTACACATACGAAGAGTCTTGATTCGCTTGACGCTGCTG | 93.9

Set 2
Target: Histone acetyltransferase KAT6A, both winged helices, GST fusion (KAT6A, Homo sapiens, UniProt Q92794, residues 1-181)
Method: protein binding microarray
Form: double-stranded DNA, one strand shown
Sample: in vitro
Concentration: not given
Setting: 8-mer, flanks averaged, mean of 2 arrays, mostly near background
Relative to: not given
Direction: higher = stronger binding
Construct (chain): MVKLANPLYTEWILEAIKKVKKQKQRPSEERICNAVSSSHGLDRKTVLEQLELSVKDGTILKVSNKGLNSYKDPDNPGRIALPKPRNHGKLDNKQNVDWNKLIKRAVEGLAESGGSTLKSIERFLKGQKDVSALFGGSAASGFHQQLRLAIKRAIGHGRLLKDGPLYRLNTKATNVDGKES
Strand | E-score
CCAGCGCA | 0.172
AATCCCTG | -0.227
GGGGCTAC | -0.0709

Other studies, line by line
IRF7 S471D/S472D/S475D/S476D/S477D/S483D/S484D/S487D full length, phosphomimetic: Interferon regulatory factor 7, full length, phosphomimetic (IRF7, Homo sapiens, UniProt Q92985, residues 1-503, S471D/S472D/S475D/S476D/S477D/S483D/S484D/S487D)
Sequence of UniProt Q92985 (whole entry, unmodified, looked up): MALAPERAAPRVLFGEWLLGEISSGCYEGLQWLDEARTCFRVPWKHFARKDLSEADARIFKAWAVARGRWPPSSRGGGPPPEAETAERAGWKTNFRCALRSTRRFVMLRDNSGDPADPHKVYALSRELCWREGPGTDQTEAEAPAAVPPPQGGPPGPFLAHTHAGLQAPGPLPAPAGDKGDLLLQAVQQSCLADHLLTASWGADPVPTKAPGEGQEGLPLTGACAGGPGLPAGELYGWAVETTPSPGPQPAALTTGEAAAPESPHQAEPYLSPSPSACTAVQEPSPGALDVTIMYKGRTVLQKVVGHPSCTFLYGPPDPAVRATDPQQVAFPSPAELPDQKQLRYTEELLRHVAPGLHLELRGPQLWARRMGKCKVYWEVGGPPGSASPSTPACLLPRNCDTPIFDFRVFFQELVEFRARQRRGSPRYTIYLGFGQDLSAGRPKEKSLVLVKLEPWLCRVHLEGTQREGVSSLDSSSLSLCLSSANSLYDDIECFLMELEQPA
Substance | target | assay | test system | setting | how to read | quantity | value
GCCTAGCACCATTTTCTGAATGTCCTCCTGTGCTAGGTCTTGATTCGCTTGACGCTGCTG | IRF7 S471D/S472D/S475D/S476D/S477D/S483D/S484D/S487D full length, phosphomimetic | protein-binding microarray | double-stranded DNA, one strand shown, in vitro | 2200 nM top, 60-bp whole probe, with: salmon DNA 0.4 mg/ml | relative to: random background probes, higher = stronger binding | fitted relative affinity | 4.98 z-score
PhoQ, residues 284 288 289 292 302 303 ASTSDA | PhoP, residues 12 14 15 18 19 NMSFL (Escherichia coli, UniProt P23836) | Sort-seq, item: YFP reporter | E. coli | PhoQ-PhoP variant library, with: 10 µM Mg2+ | relative to: high Mg2+ state, higher = stronger signaling | fold induction | 16.6
GCCTAGCACTTAGATCTCATTCTCGATTAGTGCTAGGTCTTGATTCGCTTGACGCTGCTG | IRF7 S471D/S472D/S475D/S476D/S477D/S483D/S484D/S487D full length, phosphomimetic | protein-binding microarray | double-stranded DNA, one strand shown, in vitro | 2200 nM top, 60-bp whole probe, with: salmon DNA 0.4 mg/ml | relative to: random background probes, higher = stronger binding | fitted relative affinity | 0.895 z-score

Some of these lines once more (set 1):
Strand | fluorescence intensity [a.u.]
CTTTCCCGATCTTGCCACGTGGGTGTAGCACATTTGGTCTTGATTCGCTTGACGCTGCTG | 876
